Published values pooled from the literature.
Compare with care: the assays were run in different laboratories.
Method: steady-state kinetics
B1: alanine racemase H125A (Geobacillus stearothermophilus, UniProt P10724); chain MNDFHRDTWAEVDLDAIYDNVENLRRLLPDDTHIMAVVKANAYGHGDVQVARTALEAGASRLAVAFLDEALALREKGIEAPILVLGASRPADAALAAQQRIALTVFRSDWLEEASALYSGPFPIAFHLKMDTGMGRLGVKDEEETKRIVALIERHPHFVLEGLYTHFATADEVNTDYFSYQYTRFLHMLEWLPSRPPLVHCANSAASLRFPDRTFNMVRFGIAMYGLAPSPGIKPLLPYPLKEAFSLHSRLVHVKKLQPGEKVSYGATYTAQTEEWIGTIPIGYADGWLRRLQHFHVLVDGQKAPIVGRICMDQCMIRLPGPLPVGTKVTLIGRQGDEVISIDDVARHLETINYEVPCTISYRVPRIFFRHKRIMEVRNAIGRGESSA
B2: enzyme (Burkholderia cepacia, UniProt P16932); chain MSLNDDATFWRNARQHLVRYGGTFEPMIIERAKGSFVYDADGRAILDFTSGQMSAVLGHCHPEIVSVIGEYAGKLDHLFSGMLSRPVVDLATRLANITPPGLDRALLLSTGAESNEAAIRMAKLVTGKYEIVGFAQSWHGMTGAAASATYSAGRKGVGPAAVGSFAIPAPFTYRPRFERNGAYDYLAELDYAFDLIDRQSSGNLAAFIAEPILSSGGIIELPDGYMAALKRKCEARGMLLILDEAQTGVGRTGTMFACQRDGVTPDILTLSKTLGAGLPLAAIVTSAAIEERAHELGYLFYTTHVSDPLPAAVGLRVLDVVQRDGLVARANVMGDRLRRGLLDLMERFDCIGDVRGRGLLLGVEIVKDRRTKEPADGLGAKITRECMNLGLSMNIVQLPGMGGVFRIAPPLTVSEDEIDLGLSLLGQAIERAL
B3: cyc1 F96W (Streptomyces coelicolor, UniProt Q9K499); chain MHAFPHGTTATPTAIAVPPSLRLPVIEAAFPRQLHPYWPKLQETTRTWLLEKRLMPADKVEEYADGLCYTDLMAGYYLGAPDEVLQAIADYSAWFWVWDDRHDRDIVHGRAGAWRRLRGLLHTALDSPGDHLHHEDTLVAGFADSVRRLYAFLPATWNARFARHFHTVIEAYDREFHNRTRGIVPGVEEYLELRRLTFAHWIWTDLLEPSSGCELPDAVRKHPAYRRAALLSQEFAAWYNDLCSLPKEIAGDEVHNLGISLITHHSLTLEEAIGEVRRRVEECITEFLAVERDALRFADELADGTVRGKELSGAVRANVGNMRNWFSSVYWFHHESGRYMVDSWDDRSTPPYVNNEAAGEK
B4: protein (Streptomyces coelicolor, UniProt P16544); chain MATQDSEVALVTGATSGIGLEIARRLGKEGLRVFVCARGEEGLRTTLKELREAGVEADGRTCDVRSVPEIEALVAAVVERYGPVDVLVNNAGRPGGGATAELADELWLDVVETNLTGVFRVTKQVLKAGGMLERGTGRIVNIASTGGKQGVVHAAPYSASKHGVVGFTKALGLELARTGITVNAVCPGFVETPMAASVREHYSDIWEVSTEEAFDRITARVPIGRYVQPSEVAEMVAYLIGPGAAAVTAQALNVCGGLGNY
B5: UGT1A9 (Homo sapiens, UniProt O60656); chain GKLLVVPMDGSHWFTMRSVVEKLILRGHEVVVVMPEVSWQLGRSLNCTVKTYSTSYTLEDLDREFKAFAHAQWKAQVRSIYSLLMGSYNDIFDLFFSNCRSLFKDKKLVEYLKESSFDAVFLDPFDNCGLIVAKYFSLPSVVFARGILCHYLEEGAQCPAPLSYVPRILLGFSDAMTFKERVRNHIMHLEEHLLCHRFFKNALEIASEILQTPVTEYDLYSHTSIWLLRTDFVLDYPKPVMPNMIFIGGINCHQGKPLPMEFEAYINASGEHGIVVFSLGSMVSEIPEKKAMAIADALGKIPQTVLWRYTGTRPSNLANNTILVKWLPQNDLLGHPMTRAFITHAGSHGVYESICNGVPMVMMPLFGDQMDNAKRMETKGAGVTLNVLEMTSEDLENALKAVINDKSYKENIMRLSSLHKDRPVEPLDLAVFWVEFVMRHKGAPHLRPAAHDLTWYQYHSLDVIGFLLAVVLTVAFITFKCCAYGYRKCLGKKGRVKKAHKSKTH
B6: LIP (Thermomyces lanuginosus, UniProt O59952); chain EVSQDLFNQFNLFAQYSAAAYCGKNNDAPAGTNITCTGNACPEVEKADATFLYSFEDSGVGDVTGFLALDNTNKLIVLSFRGSRSIENWIGNLNFDLKEINDICSGCRGHDGFTSSWRSVADTLRQKVEDAVREHPDYRVVFTGHSLGGALATVAGADLRGNGYDIDVFSYGAPRVGNRAFAEFLTVQTGGTLYRITHTNDIVPRLPPREFGYSHSSPEYWIKSGTLVPVTRNDIVKIEGIDATGGNNQPNIPDIPAHLWYFGLIGTCL
B7: msrA (Clostridium oremlandii, UniProt A8MI53); chain MDTNQKLSIAVFALGUFWGPDAQFGSIKGVVSTRVGYAGGTTNNPSYYNLGDHSESIEIQYDANVITYGELLNIFWNLHNPVYETTNRQYMSRIFYLDDGQKSEALEMKRQIEAANGEKIYTEIVPLENFYLAEGYHQKYYLQNTTKLYQTLKAIYGGFGNLVRSTLAARMNGYIAGNLSIASLKEEMDLVELPEDQYEKVLSIVEEIK
B8: enzyme (Mortierella alpina, UniProt U5Y6A8); chain MAPPHVVDEQVRRRIVVEDEIQSKKQFERNYVPMDFTIKEIRDAIPAHLFIRDTTKSILHVVKDLVTIAIVFYCATFIETLPSLALRVPAWITYWIIQGTVMVGPWILAHECGHGAFSDSKTINTIFGWVLHSALLVPYQAWAMSHSKHHKGTGSMSKDVVFIPATRSYKGLPPLEKPAAEEEVLEQEHHHHEESIFAETPIYTLGALFFVLTLGWPLYLIMNFSGHEAPHWVNHFQTVAPLYEPHQRKNIFYSNCGIVAMGSILTYLSMVFSPLTVFMYYGIPYLGVNAWIVCITYLQHTDPKVPHFRDNEWNFQRGAACTIDRSFGTIVNHLHHHIGDSHQCHHMFSQMPFYNAVEATKHLKAKLGKYYIFDDTPIAKALYRNWRECKFVEDEGDVVFYKH
Chain of UniProt O31743 (whole entry, looked up): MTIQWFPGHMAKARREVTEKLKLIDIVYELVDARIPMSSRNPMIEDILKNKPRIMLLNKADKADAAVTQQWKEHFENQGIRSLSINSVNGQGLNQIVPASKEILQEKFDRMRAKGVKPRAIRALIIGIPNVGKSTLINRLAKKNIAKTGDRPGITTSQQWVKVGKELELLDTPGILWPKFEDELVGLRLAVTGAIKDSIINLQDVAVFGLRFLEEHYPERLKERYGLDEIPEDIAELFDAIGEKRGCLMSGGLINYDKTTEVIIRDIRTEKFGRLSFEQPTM
Chain of UniProt Q9UBT6 (whole entry, looked up): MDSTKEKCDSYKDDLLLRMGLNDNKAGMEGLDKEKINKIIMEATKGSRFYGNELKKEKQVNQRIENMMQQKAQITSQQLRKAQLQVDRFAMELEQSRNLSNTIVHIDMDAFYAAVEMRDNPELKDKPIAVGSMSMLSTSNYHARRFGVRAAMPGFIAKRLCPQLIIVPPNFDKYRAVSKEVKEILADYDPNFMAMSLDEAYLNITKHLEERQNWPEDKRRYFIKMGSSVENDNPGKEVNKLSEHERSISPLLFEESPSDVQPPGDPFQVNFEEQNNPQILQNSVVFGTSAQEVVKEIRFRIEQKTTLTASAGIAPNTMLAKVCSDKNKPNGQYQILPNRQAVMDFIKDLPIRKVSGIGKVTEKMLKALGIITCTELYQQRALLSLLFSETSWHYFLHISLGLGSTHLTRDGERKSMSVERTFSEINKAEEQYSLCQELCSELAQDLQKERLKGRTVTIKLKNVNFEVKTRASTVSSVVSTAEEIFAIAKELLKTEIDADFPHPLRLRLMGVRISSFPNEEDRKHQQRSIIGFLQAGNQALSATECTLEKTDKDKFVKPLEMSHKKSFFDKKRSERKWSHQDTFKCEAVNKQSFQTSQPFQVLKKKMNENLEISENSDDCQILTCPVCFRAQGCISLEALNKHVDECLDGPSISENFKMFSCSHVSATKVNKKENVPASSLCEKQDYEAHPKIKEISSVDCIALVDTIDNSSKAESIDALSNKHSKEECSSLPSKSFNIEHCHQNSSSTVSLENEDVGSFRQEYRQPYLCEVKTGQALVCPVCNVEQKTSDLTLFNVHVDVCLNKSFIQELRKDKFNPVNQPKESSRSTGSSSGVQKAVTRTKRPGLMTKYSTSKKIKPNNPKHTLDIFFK

Molecule	substrate	setting	Km [µM]
B1 (alanine racemase H125A)	C[C@@H](N)C(=O)O	pH 9, room temperature, together with: NAD+ 10 mM	500
B2 (enzyme)	CC(C)(N)C(=O)O	pH 7.4, 25 °C	2500
B3 (cyc1 F96W)	CC(C)=CCC/C(C)=C/CC/C(C)=C/CO[P@@](=O)(O)OP(=O)(O)O	pH 6.5, 30 °C, together with: MgCl2 10 mM	0.31
POLK (Homo sapiens, UniProt Q9UBT6)	Cc1cn([C@H]2C[C@H](O)[C@@H](COP(=O)(O)OP(=O)(O)OP(=O)(O)O)O2)c(=O)[nH]c1=O	pH 8, 37 °C, misinsertion opposite dT, together with: Mg2+	120
B4 (protein)	O[C@H]1CCCc2ccccc21	pH 7.4, phosphate 400 mM, NADPH 250 µM printed, together with: NADP+, reverse reaction	6910
B5 (UGT1A9)	CC(C)c1cccc(C(C)C)c1O	pH 7.4, 37 °C	26
B6 (LIP)	CCCC(=O)Oc1ccc([N+](=O)[O-])cc1	pH 8.2, 25 °C, free enzyme	1.03
protein (Drosophila melanogaster, UniProt F2YPN7)	N[C@@H](CCC(=O)O)C(=O)O	pH 6.8, not purified	69.4
RbgA (Bacillus subtilis, UniProt O31743)	Nc1nc2c(ncn2[C@@H]2O[C@H](COP(=O)(O)OP(=O)(O)OP(=O)(O)O)[C@@H](O)[C@H]2O)c(=O)[nH]1	pH 7.5, 37 °C, KCl 200 mM, free enzyme, apparent, together with: GTP 0-1 mM	82.8
B7 (msrA)	CN(C)c1ccc(N=Nc2ccc(S(=O)(=O)N[C@@H](CC[S@+](C)[O-])C(=O)O)cc2)cc1	pH 7.5, 37 °C, 50 mM NaCl, Km above tested range, together with: 20 mM DTT reductant	10200
B8 (enzyme)	CCCCC/C=C\C/C=C\C/C=C\CCCCC(=O)SCCNC(=O)CCNC(=O)[C@H](O)C(C)(C)COP(=O)(O)OP(=O)(O)OC[C@H]1O[C@@H](n2cnc3c(N)ncnc32)[C@H](O)[C@@H]1OP(=O)(O)O	pH 7.5, 28 °C	87.9
alanine aminopeptidase (Neisseria meningitidis, UniProt Q9JYV4)	C[C@H](N)C(=O)Nc1ccc2c(CC(N)=O)cc(=O)oc2c1	pH 7.5, 37 °C	175
